Results collected from several papers.
Each line is one published result; not all experiments were run side by side. ± gives the spread as reported.

Cc1ccc(C)c(OCCCC(C)(C)C(=O)O)c1
elimination half-life (human subjects; with: lopinavir-ritonavir; baseline: without lopinavir-ritonavir): no effect

NC[C@@]1(CC(=O)O)[C@@H]2CC[C@H]3C[C@@H]2[C@@H]1C3
elimination rate constant (human, moderate renal impairment, plasma; oral, 20 mg single dose, geometric mean): 3.22e-05 s⁻¹

COc1ncnn2ccc(-c3cnc4nc(C)n(Cc5nnc([C@@H](C)F)o5)c4c3)c12
elimination half-life (LC-MS/MS; human, plasma; oral, 105 mg capsule, cycle 1 day 1): 5.23 h

CCNCCCNC/C=C\CNCCCNCC
elimination rate constant (LC-MS/MS; human cancer patients, plasma; intravenous infusion 60 min, 50 mg, median, cycle 1): 0.0011 s⁻¹

Cl.[2H]C([2H])([2H])CC(=O)c1cnc(NC(=O)C2CC2)cc1Nc1cccc(-c2ncn(C([2H])([2H])[2H])n2)c1OC
elimination rate constant (geometric mean; human; oral, 10 mg once daily, day 1, fasted, liquid, multiple dose): 2.61e-05 s⁻¹

O=C(CN[C@@H]1CCNC1)N1CCC[C@H]1B(O)O
elimination rate constant (PK model; human, plasma; subcutaneous, 60 mg once daily): 0.000125 s⁻¹

CC(F)(F)c1cc(F)ccc1-c1sc2cc(O)ccc2c1Oc1ccc(/C=C/C(=O)O)cc1
elimination half-life (human patients, plasma; oral, 200 to 900 mg, geometric mean, preliminary): 3.1 to 5.6 h

CC[C@H](Nc1ncnc2[nH]cnc12)c1oc2ccccc2c(=O)c1-c1cccc(F)c1
elimination rate constant (human, plasma; oral, 800 mg twice daily, with: romidepsin 14 mg/m2): 2.75e-05 ± 3.17e-05 s⁻¹

N#Cc1ccc(C(c2ccc(C#N)cc2)n2cncn2)cc1
elimination half-life (one-compartment model; human patients, plasma; oral): 60 to 90 h

NCCONC(=O)[C@@H]1CC[C@@H]2CN1C(=O)N2OS(=O)(=O)O
elimination rate constant (human, plasma; intravenous infusion, 2 g multiple doses, day 9, phase I): 7.36e-05 s⁻¹

CNC(=O)c1c(C)oc2cc(Oc3ncnc4cc(OC)c(OC)cc34)ccc12
elimination half-life (final population PK model; human; oral): 43.2 h
